Assay results from different studies.
Several values in a cell are separate wells, animals, samples, runs or records. ± gives the spread as reported.

`Cn1cc(-c2ccc(-c3cncc(Cl)c3N3CCC4(CCNC4=O)CC3)cc2)cn1`: “log2 fold change” 2.72 (COLO 205; gene expression, microarray, item: CCL15 mRNA; concentration not given, 6 h; baseline: untreated cells).
Under “log2 fold change”, `Cc1cc(Nc2ncc(Cl)c(Nc3ccccc3S(=O)(=O)C(C)C)n2)c(OC(C)C)cc1C1CCNCC1` is recorded as -1.68 (CLB-GE; phosphoproteomics LC-MS/MS, item: BAI2 phosphorylation; 200 nM, 60 min; baseline: untreated).
`CC1(C)CN=C(N2CCN(c3ncnc4sc(CC(F)(F)F)cc34)CC2)S1` gave an IC50 of 0.192 µM (HD-MB03; cell growth; DMSO).
Under “6-thio-GTP in RNA”, `O=C(c1ccc2[nH]ccc2c1)N1CCN(S(=O)(=O)c2ccc3[nH]c(=O)oc3c2)CC1` is recorded as 298 a.u. (HL-60; NUDT15 inhibitor, mass spectrometry; 10 µM, 16 h, with: 6-thioguanine 0.5 µM; higher = more incorporation).
`Cc1noc2c1-c1ccccc1C(c1ccc(Cl)cc1)=N[C@H]2CC(N)=O` gave an IC50 of 1.05 µM (HD-MB03; cell growth; 168 h, single agent).
`Cc1cnc(NC2CCOCC2)nc1-n1cnc(C(=O)NC(CN)c2cc(F)cc(Cl)c2)c1` (centres unmarked) — result for “G2 phase cells”: 1% (A-375; flow cytometry; 1 µM, 72 h).
`CCn1cc(-c2cc(Cn3ccoc3=N)cc3c2CCN([C@@H](C)c2cc(OC)ccn2)C3=O)c(C(F)(F)F)n1` has an EC50 of 4.25 µM (TE-5; cell growth, inhibitor; 120 h).
The Kd of `CC(C)C[C@H](NC(=O)N1CCCCCC1)C(=O)N[C@H](Cc1cn(C)c2ccccc12)C(=O)N[C@H](Cc1ccc(O)cc1)C(=O)O` is reported as 0.000114 µM (NIH/3T3 cells; binding, antagonist, radioligand binding).
Under “reversal of trafficking deficit”, `CN(CCOc1ccc(NS(C)(=O)=O)cc1)CCc1ccc(NS(C)(=O)=O)cc1` is recorded as 41.9% (primary rat hippocampal/cortical neuron-glia cultures; 1 µM, with: 1 µM α-synuclein oligomers).
The viability of `Cc1cccc(-c2[nH]c(CNc3ccccc3F)nc2-c2ccc3ncnn3c2)n1` is reported as 23% (MM1.S pomalidomide-resistant; XTT; 2.5 µM; baseline: untreated).
For `CCCCc1nc(Cl)c(CO)n1Cc1ccc(-c2ccccc2-c2nn[nH]n2)cc1`, “log2 fold change” read -1.52 (human PBMC; RNA-seq, item: CARD9 mRNA; 10 µg/mL, 24 h; baseline: untreated control).
The IC50 of `Nc1nc2[nH]cc(CCc3ccc(C(=O)N[C@@H](CCC(=O)O)C(=O)O)cc3)c2c(=O)[nH]1` is reported as 0.142 µM (HD-MB03; cell growth; 168 h, DMSO).
`CCN(c1nc(N)c(C(=O)NC(=N)N)nc1Cl)C(C)C`: “reduction of PS-positive cells” 6.4% (HMC3; endocytosis, flow cytometry; 30 µM, 2 h pretreatment then 3 h, with: FITC-PS 0.2 mg/mL).
`CC/C(=N\NC(=O)C(C)Nc1ccccc1)c1ccc(O)c(C)c1O` (centres unmarked) gave a protein level of 1.8 ± 0.31 (SK-OV-3; Western blot, item: TAZ; 10 µM, 6 h, 3D gellan gum culture, unit not given; baseline: β-actin).
Under “G2/M cells in subpopulation”, `C=CCn1c(=O)c2cnc(Nc3ccc(N4CCN(C)CC4)cc3)nc2n1-c1ccc2c(n1)[C@@](O)(CC)CC2` is recorded as 3.2% (Kuramochi; flow cytometry, item: pHH3-γH2Ax+; concentration not given).
`Nc1nc(N)c2nc(CNc3ccc(C(=O)c4ccccc4)cc3)cnc2n1` gave a mitochondrial toxicity of 9.52 ± 10.3% (786-O; high-content imaging, item: MitoTracker Red uptake; 10 µM).
`COc1cc(Br)c(Nc2nc(-c3c(C)nc4ncccn34)cs2)c(Br)c1` — result for “fold change in IC50”: 1.55 (HD-MB03; concentration not given, with: ribociclib NG; baseline: ribociclib over DMSO).
`COc1ccc(NC(=S)N/N=C/c2cccc3cc4ccccc4nc23)cc1` — result for “early apoptotic cells”: 9.63 ± 1.1% (HeLa; annexin V/PI flow cytometry; IC50, 48 h).
`CC(C)(c1ccc(O)cc1)c1ccc(O)cc1` — result for “G1 phase cells”: 81.7 ± 3.56% (HepG2 spheroids; Hoechst flow cytometry; 0.01 µM, 96 h).
With `CC(C)c1c2cc(-c3ccnc(NC4CCC(NC5CCOCC5)CC4)n3)ccc2nn1C` (centres unmarked) the IC50 was 0.166 µM (HD-MB03; cell growth; single agent).
`CCn1cc(-c2cc(Cn3ccnc3)cc3c2CCN([C@H](c2cc(OC)ccn2)C2CC2)C3=O)c(C(F)(F)F)n1` has an EC50 of 28.1 µM (BICR56; cell growth; 120 h).
`O=C1[C@H](Cc2ccc(O)cc2)N2C(=O)CCN(C(=O)NCc3ccccc3)[C@H]2CN1Cc1cccc2ccccc12`: “fold change in IC50” 0.482 (HD-MB03; concentration not given, with: ribociclib NG; baseline: ribociclib over DMSO).
The GI50 of `O=C(/C=C/C=C/C=C/C1CCCCC1)NC1=C[C@@](O)(/C=C/C=C/C=C/C(=O)NC2=C(O)CCC2=O)[C@@H]2O[C@@H]2C1=O` is reported as 13.6 µM (NCI-H1048; cell growth, CellTiter-Glo; 78 h).
The IC50 of `Cn1ncnc1[C@H]1c2n[nH]c(=O)c3cc(F)cc(c23)N[C@@H]1c1ccc(F)cc1` is reported as 0.0266 µM (HD-MB03; cell growth; 168 h, DMSO).
`Nc1cccc2c1C(=O)N(C1CCC(=O)NC1=O)C2=O` (centres unmarked) — result for “surface marker level”: 50.1% (RPMI-8226; flow cytometry, item: CD14; concentration not given; baseline: comparator compound alone).
`CC[C@]1(O)C[C@@H]2CN(CCc3c([nH]c4ccccc34)[C@@](C(=O)OC)(c3cc4c(cc3OC)N(C)[C@H]3[C@@](O)(C(=O)OC)[C@H](OC(C)=O)[C@]5(CC)C=CCN6CC[C@]43[C@@H]65)C2)C1` gave a fold resistance of 13.6 (KB-C2 (P-gp overexpressing); cell growth; baseline: IC50 in KB-C2 over KB-3-1).
For `COCCOCCOCCOc1ccc(C#Cc2cc(CN3CCN(Cc4cc(C#Cc5ccc(OCCOCCOCCOC)cc5)cc(C(=O)O)n4)CCN(Cc4cc(SC[C@H](N)C(=O)NC[C@H]5CC[C@H](C(=O)N[C@@H](Cc6ccc7ccccc7c6)C(=O)NCCCC[C@H](NC(=O)N[C@@H](CCC(=O)O)C(=O)O)C(=O)O)CC5)cc(C(=O)O)n4)CC3)nc(C(=O)O)c2)cc1` [yttrium-86 labelled], the cell-bound radioactivity was 8.33 ± 0.27% (PC-3 flu (PSMA-negative); concentration not given).
For `Cc1c(-c2c(-c3ccc(F)o3)sc3ncnc(O[C@H](Cc4ccccc4OCc4ccnn4CC(F)(F)F)C(=O)O)c23)ccc(OCCN2CCN(C)CC2)c1Cl`, “fold change in IC50” read 2.06 (HD-MB03; concentration not given, with: ribociclib NG; baseline: ribociclib over DMSO).
`C=CC1=C(C)c2cc3[n-]c(cc4nc(cc5[n-]c(cc1n2)c(C)c5C=C)C(C)=C4CCC(=O)O)c(CCC(=O)O)c3C.[Zn+2]` has a fold change of 1.65 (SH-SY5Y; RNA-seq, item: RGS3 mRNA; 5 µM, 5 h; baseline: untreated cells).
`Cc1nc(NC(=O)N2CCC[C@H]2C(N)=O)sc1-c1ccnc(C(C)(C)C(F)(F)F)c1`: “Hill coefficient GR curve” 0.765 (NCI-H596; cell growth, CellTiter-Glo; 120 h).
Under “reversal of trafficking deficit”, `Cc1cccc(C)c1NC(=O)C(C)N` (centres unmarked) is recorded as -15% (primary rat hippocampal/cortical neuron-glia cultures; 1 µM, with: 1 µM α-synuclein oligomers).
The mRNA level of `COc1cc(/C=C/C(=O)N2CCC=CC2=O)cc(OC)c1OC` is reported as 93.4 ± 13.2% (MDA-MB-468; qRT-PCR, item: PDK1; 30 µM, 6 h; baseline: time zero).
`O=C(C[C@@H](C(F)F)n1ccc(F)n1)N1CCC(O)(Cn2cnc3c(cnn3-c3ccc(F)cc3)c2=O)CC1` — result for “cells in S phase”: 13.3% and 12.6% and 15.7% (CHP-212 resistant; PI staining flow cytometry; 0.1 µM, 24 h).
Under “number of upregulated genes”, `Cn1cc(Nc2nccc(-c3ccc4c(c3)CN(C3COC3)CC[C@H]4NC(=O)c3cn(C(C)(C)C)nn3)n2)cn1` is recorded as 14 (human B cells; 100 nM, 64 h, stimulation-downregulated genes, with: anti-IgM).
Under “Bliss synergy score”, `COc1cc2ncnc(Nc3ccc(Oc4ccccc4)cc3C)c2cc1OC.O=C(O)C(F)(F)F` is recorded as 116% (SK-MEL-2 (NRAS Q61R); resazurin; concentration not given, 72 h, with: trametinib; direction not given).
`COc1cnc2cccc(N3CCc4c(cc(Cn5ccnc5C)cc4-c4cn(C)nc4C(F)(F)F)C3=O)c2c1` has an EC50 of 7.1 µM (NCI-H358; cell growth, inhibitor; 120 h).
`Nc1cc2cccnc2c2ncccc12` has a selectivity ratio of 2.1 (HFF-1 and PC-3; MTT; 48 h, dark; baseline: IC50 HFF-1 over IC50 PC-3).
Under “early apoptotic cells”, `Cc1ccc(-c2cc3ccccc3c(N)n2)cc1` is recorded as 4.1% (SEM; annexin V-FITC/PI flow cytometry, item: annexin V+ PI-; 5.0 µM, 72 h).
`Cc1cc(N2CCc3c(c(C)nn3CC34CCC(NC(=O)[C@@H]5COCCN5)(CC3)CC4)C2)c2cnn(C)c2n1` has an inhibition of 88 ± 2% (human PBMC; qRT-PCR, item: IRF7 mRNA; 100 nM, with: ssRNA).
The fractional effect of `COc1cc2ncnc(Nc3ccc(Oc4ccccc4)c(C)c3C)c2cc1OC.Cl` is reported as 0.273 and 0.296 (LoVo (KRAS G13D); cell viability, resazurin; 3 µM, 72 h, with: trametinib 0 nM; baseline: DMSO).
For `Cc1ccc(S(=O)(=O)NNC(=O)COC(=O)c2ccccc2Nc2cccc(C(F)(F)F)c2)cc1`, “mTOR protein level” read 0.329 (RAW264.7; Western blot; concentration not given, 72 h, unit not given, with: LPS; baseline: control).
`C=Cc1c2[n-]c(c1C)/C=c1\[n-]/c(c(C)c1C=C)=C\c1[n-]c(c(CCC(=O)O)c1C)/C=c1\[n-]c(c(C)c1CCC(=O)O)=C2.[Sn+4]` has a fold change of 2.23 (SH-SY5Y; RNA-seq, item: PLAT mRNA; 5 µM, 5 h; baseline: untreated cells).
Under “intracellular ROS level”, `CC(=O)O[C@@H]1CC[C@@]2(C)[C@@H](CC[C@]3(C)[C@@H]2C(=O)C=C2[C@@H]4[C@@H](C)[C@H](C)CC[C@]4(C)CC[C@]23C)[C@@]1(C)C(=O)O` is recorded as “decreased” (RAW264.7; DCF fluorescence; concentration not given, 24 h, with: LPS; baseline: LPS alone).
Under “mRNA level, LS mean”, `c1ccc2[nH]ccc2c1` is recorded as 2.94 counts per million (HCT-8; RNA-seq, item: FITM1; concentration not given).
The inhibition of `Cc1ccc(Cn2cc(COc3cccc(Cc4cnc(NC(=O)CSc5nc(C)cc(C)n5)s4)c3)nn2)cc1` is reported as 32.7 ± 10.8% (HGC-27; cell viability, MTS; 10 µM).
The IC50 of `O=C(O)COCC(=O)O` is reported as 8870 µM (hepatocytes, iPSC-derived, W2 line; cell viability, RealTime-Glo MT; 24 h, differentiation day 23).
`Cl.Cl.NCCNS(=O)(=O)c1ccc(Cl)c2ccncc12` — result for “relative cell number”: 114% (SK-OV-3; ATP; 1 µM, 4 days, 3D U-bottom low-attachment; baseline: untreated).

Repeated from above:
`Cc1noc2c1-c1ccccc1C(c1ccc(Cl)cc1)=N[C@H]2CC(N)=O` gave an IC50 of 1.05 µM (HD-MB03; cell growth; 168 h, single agent).
`Cc1cnc(NC2CCOCC2)nc1-n1cnc(C(=O)NC(CN)c2cc(F)cc(Cl)c2)c1` (centres unmarked) — result for “G2 phase cells”: 1% (A-375; flow cytometry; 1 µM, 72 h).
`CCn1cc(-c2cc(Cn3ccoc3=N)cc3c2CCN([C@@H](C)c2cc(OC)ccn2)C3=O)c(C(F)(F)F)n1` has an EC50 of 4.25 µM (TE-5; cell growth, inhibitor; 120 h).
